Results pooled from the literature.
Numbers after ± are the reported error.
Ribonucleoside-diphosphate reductase large subunit: Ribonucleoside-diphosphate reductase large subunit (Homo sapiens, UniProt P23921)
Methyl-accepting chemotaxis protein Tlp3: Methyl-accepting chemotaxis protein Tlp3 (Campylobacter jejuni, UniProt Q0P864)
BCL2L1: Bcl-2-like protein 1 (BCL2L1, Homo sapiens, UniProt Q07817)
MDM2: E3 ubiquitin-protein ligase Mdm2 (MDM2, Homo sapiens, UniProt Q00987)

Substance	tested on	assay	test system	setting	scale	measurement	result
C[C@H](N)C(=O)N[C@@H](CCCNC(=N)N)C(=O)N[C@H](C(=O)N[C@@H](CCCCN)C(=O)N[C@@H](CCC(N)=O)C(=O)N[C@H](C(=O)N[C@@H](C)C(=O)N[C@@H](CCCNC(=N)N)C(=O)N[C@@H](CCCCN)C(=O)N[C@@H](CO)C(=O)N[C@H](C(=O)NCC(=O)O)[C@@H](C)O)[C@@H](C)O)[C@@H](C)O	Baculoviral IAP repeat-containing protein 5.1-A (birc5.1-a, Xenopus laevis, UniProt Q8JGN5)	ITC	–	pH 6.8, 25 °C	–	Kd	28.7 ± 5.9 µM
Cn1c(-c2ccc(C(N)=O)cc2F)nnc1C(C)(C)Oc1c(F)cc(Cl)cc1F	–	–	young non-Japanese humans, plasma	oral, 2 mg once daily, last day of 14 days	–	median AUC(0-tau)	219 ng·h/mL
O=C(N/N=C/c1cc(-c2ccsc2)ccc1O)c1ccccc1O	Ribonucleoside-diphosphate reductase large subunit	binding, fluorescence	–	pH 8	–	Kd	53.8 µM
CCC[C@H](N)C(=O)O	Methyl-accepting chemotaxis protein Tlp3	binding, ITC	–	melting temperature	–	Kd	1760 ± 47 µM
O=C(N/N=C/c1c(O)ccc2ccccc12)c1ccc(-n2ccccc2=O)cc1	Ribonucleoside-diphosphate reductase large subunit	binding, fluorescence	–	pH 8	–	Kd	36.8 µM
YAQEIGRNGDEF	BCL2L1	yeast display titration	peptide	2 h, pH 8.0, room temperature	–	Kd	0.011 ± 0.003 µM
CC(=O)N[C@@H](CC(C)C)C(=O)N[C@@H](CCCCN)C(=O)N[C@@H](CCCCN)C(=O)N[C@@H](CC(C)C)C(=O)N[C@@H](CC(C)C)C(=O)N[C@@H](CCCCN)C(=O)N[C@@H](CC(C)C)C(=O)N[C@@H](Cc1c[nH]c2ccccc12)C(=O)N[C@@H](CCCCN)C(=O)N[C@@H](CCCCN)C(=O)N[C@@H](CC(C)C)C(=O)N[C@@H](CC(C)C)C(=O)N[C@@H](CCCCN)C(=O)N[C@@H](CC(C)C)C(=O)N[C@@H](C)C(=O)NCC(N)=O	HIV-1 RRE hairpin RNA	competitive fluorescence anisotropy	–	pH 7.4, 20 °C, added: rhodamine-Rev peptide	–	Kd	0.037 ± 0.0002 µM
CCCCCCCCCC[N+](CC)(CC)CC	Kcnma1 (Mus musculus, UniProt Q08460, E386N/E389N)	ion current, blocker, inside-out patch clamp	–	E321N/E324N double mutant, 100 mV	–	Kd	32.8 µM
CC(=O)N[C@@H](CC(C)C)C(=O)N[C@@H](CCCCN)C(=O)N[C@@H](CCCCN)C(=O)N[C@@H](CC(C)C)C(=O)N[C@@H](CC(C)C)C(=O)N[C@@H](CCCCN)C(=O)N[C@@H](CC(C)C)C(=O)N[C@@H](CC(C)C)C(=O)N[C@@H](CCCCN)C(=O)N[C@@H](CCCCN)C(=O)N[C@@H](CC(C)C)C(=O)N[C@@H](Cc1c[nH]c2ccccc12)C(=O)N[C@@H](CCCCN)C(=O)N[C@@H](CC(C)C)C(=O)N[C@@H](C)C(=O)NCC(N)=O	HIV-1 RRE hairpin RNA	competitive fluorescence anisotropy	–	pH 7.4, 20 °C, added: rhodamine-Rev peptide	–	Kd	0.013 ± 0.001 µM
CC(=O)N[C@H]1[C@H](O[C@H]2[C@H](O)[C@@H](NC(C)=O)[C@H](O[C@H]3[C@H](O)[C@@H](NC(C)=O)C(O)O[C@@H]3CO)O[C@@H]2CO)O[C@H](CO)[C@@H](O[C@@H]2O[C@H](CO)[C@@H](O[C@@H]3O[C@H](CO)[C@@H](O[C@@H]4O[C@H](CO)[C@@H](O)[C@H](O)[C@H]4NC(C)=O)[C@H](O)[C@H]3NC(C)=O)[C@H](O)[C@H]2NC(C)=O)[C@@H]1O (some centres unmarked)	Chitinase-3-like protein 2 (CHI3L2, Homo sapiens, UniProt Q15782)	tryptophan fluorescence	–	pH 7.5	–	Kd	0.6 ± 0.1 µM
COc1ccc(OCc2ccccn2)c(C=O)c1	Hemoglobin subunit alpha, with beta chain (HBA1, Homo sapiens, UniProt P69905)	steady-state binding, cation-exchange HPLC	–	37 °C	–	Kd	190 µM
O=C(N/N=C/c1cccnc1)c1c(O)ccc2ccccc12	Ribonucleoside-diphosphate reductase large subunit	binding, fluorescence	–	pH 8	–	Kd	27.4 µM
Cn1nc(CC(=O)Nc2cc(S(=O)(=O)Nc3cccc(Cl)c3)ccc2O)c2ccccc2c1=O	APOE (Homo sapiens, UniProt P02649, C130R/S157C)	fluorescence quenching titration	Alexa488-labelled protein, HEPES buffer	pH 7.4, 25 °C, label at position 139	–	Kd	8.5 ± 1.1 µM
Cc1nc(N)sc1CCCNC(=N)NCCCCCCCCNC(=N)NCCCc1sc(N)nc1C	HRH3 (Homo sapiens, UniProt Q9Y5N1)	GTPγS binding, antagonist	–	cell membranes	–	Kb	29.5 µM
Cc1ccc(S(=O)(=O)/N=C(\Nc2ccc(Cl)cc2)NC(C)(C)C)cc1	MDM2	binding, NMR	–	–	–	Kd	> 100 µM
Nc1ncnc2c1ncn2[C@@H]1O[C@H](COP(=O)(O)OP(=O)(O)OP(=O)(O)O)[C@@H](O)[C@H]1O	EIF2AK4 (Homo sapiens, UniProt Q9P2K8)	–	–	–	–	Kd	92 µM
N=C(N)NCCC[C@H](NC(=O)c1ccc2c(c1)C(=O)OC21c2ccc(O)cc2Oc2cc(O)ccc21)C(=O)N[C@@H](CO)C(=O)N[C@@H](CCCNC(=N)N)C(=O)N[C@@H](CO)C(=O)N[C@@H](CCCNC(=N)N)C(=O)N[C@@H](CO)C(=O)N[C@@H](CCCNC(=N)N)C(=O)N[C@@H](CO)C(=O)N[C@@H](CCCNC(=N)N)C(=O)N[C@@H](CO)C(=O)N[C@@H](CCCNC(=N)N)C(=O)N[C@@H](CO)C(=O)N[C@@H](CCCNC(=N)N)C(=O)N[C@@H](CO)C(=O)N[C@@H](CCCNC(=N)N)C(=O)N[C@@H](CO)C(=O)N[C@@H](CCCNC(=N)N)C(=O)N[C@@H](CO)C(=O)N[C@@H](CCCNC(=N)N)C(=O)N[C@@H](CO)C(=O)N[C@@H](CCCNC(=N)N)C(=O)N[C@@H](CO)C(=O)N[C@@H](CCCNC(=N)N)C(=O)N[C@@H](CO)C(=O)N[C@@H](CCCNC(=N)N)C(=O)N[C@@H](CO)C(=O)N[C@@H](CCCNC(=N)N)C(=O)N[C@@H](CO)C(=O)N[C@@H](CCCNC(=N)N)C(=O)N[C@@H](CO)C(=O)N[C@@H](CCCNC(=N)N)C(=O)N[C@@H](CO)C(=O)O	SRPK1 ΔN	peptide binding, fluorescence	–	added: fluorescein-labelled Arg-Ser peptide	–	Kd	0.16 ± 0.025 µM
NC(=O)C1=CN([C@@H]2O[C@H](COP(=O)(O)OP(=O)(O)OC[C@H]3O[C@@H](n4cnc5c(N)ncnc54)[C@H](O)[C@@H]3O)[C@@H](O)[C@H]2O)C=CC1	Pyrroline-5-carboxylate reductase 3 (PYCR3, Homo sapiens, UniProt Q53H96)	–	–	pH 7.5, 26 °C, free enzyme, random bi bi kinetics	–	Kd	31 ± 14 µM
CC[n+]1c(-c2ccccc2)c2cc(N)ccc2c2ccc(N)cc21	HIV-1 nucleocapsid-SL4 RNA complex	binding, ESI-FTMS	–	pH 7.5	–	Kd	25.5 ± 2.3 µM

Substance	tested on	assay	test system	setting	scale	measurement	result
Cc1occc(=S)c1O	Carbonic anhydrase 2, Co(II)-substituted (CA2, Bos taurus, UniProt P00921)	binding, UV-vis titration	–	pH 7.5, protonated form	–	Kd	350 µM
O=c1c(O)c(-c2ccc(O)c(O)c2)oc2cc(O)cc(O)c12	chemokine CCL2, human and mouse	fluorescence quenching	–	summary over orthologs and variants	–	Kd	3.5 µM
Nc1ncnc2c1ncn2-c1ccc(/C=N/NC(=O)c2ccccc2O)cc1	Ribonucleoside-diphosphate reductase large subunit	binding, fluorescence	–	–	–	Kd	4 µM
Nc1ncnc2c1ncn2[C@H]1C[C@H](O)[C@@H](COP(=O)(O)OP(=O)(O)OP(=O)(O)O)O1	POLK (Homo sapiens, UniProt Q9UBT6)	nucleotide incorporation, substrate	–	pH 8.0, 37 °C, opposite undamaged dT	–	Kd	8 ± 1 µM
GGTFXGYWADLXAF (side-chain stapled)	MDM2	binding, bacterial surface display flow cytometry	peptide, Escherichia coli cell surface	3 h, on ice, non-stabilized diazido peptide	–	Kd	0.0029 ± 0.001 µM
Oregon Green	calcium	fluorescent indicator	–	pH 7.4, 22 °C	–	Kd	34.2 µM
CC(C)[C@H](N)C(=O)O	Methyl-accepting chemotaxis protein Tlp3, sensing domain (Campylobacter jejuni, UniProt Q0P864)	binding, thermal shift	–	unfolding equilibrium constant at To	–	Kd	2290 ± 534 µM
CN(C)c1cccc2c(S(N)(=O)=O)cccc12	CA2 (Bos taurus, UniProt P00921)	fluorescence competition binding	–	–	lower = stronger binding	Kd	1.6 µM
Nc1nc2ncc(CNc3ccc(C(=O)N[C@@H](CCC(=O)O)C(=O)O)cc3)nc2c(=O)[nH]1	Eif4e (Mus musculus, UniProt P63073)	cap analogue binding, pyrene fluorescence competition	–	20 °C	–	Kd	> 10 µM
[I-].[K+]	SLC4A1 (Homo sapiens, UniProt P02730)	36Cl exchange flux, inhibitor, Dixon plot	human red blood cells	pH 11.9 external, 0 °C, internal Cl 294 mM, CAPS buffer	–	Kd	66300 µM
Nc1nc2c(ncn2[C@@H]2O[C@H](COP(=O)(O)OP(=O)(O)OP(=O)(O)O)[C@@H](O)[C@H]2O)c(=O)[nH]1	E3 ubiquitin-protein ligase Mdm2, RING domain (MDM2, Homo sapiens, UniProt Q00987)	ATP binding	–	GST-fused residues 400-491	–	Kd	> 200 µM
CC1=C(/C=C/C(C)=C/C=C/C(C)=C/C=O)C(C)(C)CCC1	Retinol-binding protein 2 (Rbp2, Rattus norvegicus, UniProt P06768)	binding, fluorescence titration	–	pH 7.4, 25 °C	–	Kd	0.011 ± 0.004 µM
OCc1ccc(-c2nn(Cc3ccccc3)c3ccccc23)o1	soluble guanylate cyclase beta subunit, N-terminal fragment (Manduca sexta, UniProt O77106)	binding, CO titration, global fit	–	0.1 µM protein, 10 cm cuvette	–	Kd	9.3 ± 0.8 µM
CC(=O)N[C@@H](CC(C)C)C(=O)N[C@@H](CCCCN)C(=O)N[C@@H](CCCCN)C(=O)N[C@@H](CC(C)C)C(=O)N[C@@H](CC(C)C)C(=O)N[C@@H](CCCCN)C(=O)N[C@@H](CC(C)C)C(=O)N[C@@H](CC(C)C)C(=O)N[C@@H](CCCCN)C(=O)N[C@@H](CCCCN)C(=O)N[C@@H](Cc1c[nH]c2ccccc12)C(=O)N[C@@H](CC(C)C)C(=O)N[C@@H](CCCCN)C(=O)N[C@@H](CC(C)C)C(=O)N[C@@H](C)C(=O)NCC(N)=O	HIV-1 RRE hairpin RNA	competitive fluorescence anisotropy	–	pH 7.4, 20 °C, added: rhodamine-Rev peptide	–	Kd	0.0095 ± 0.001 µM
COc1cccc2c1C(=O)c1c(O)c3c(c(O)c1C2=O)C[C@@](O)(C(C)=O)C[C@@H]3O[C@H]1C[C@H](N)[C@H](O)[C@H](C)O1	HIV-1 nucleocapsid-SL4 RNA complex	binding, ESI-FTMS	–	pH 7.5	–	Kd	13.1 ± 2.1 µM
CC(C)C[C@H](N)C(=O)O	Methyl-accepting chemotaxis protein Tlp3	binding, ITC	–	melting temperature	–	Kd	799 ± 38 µM
O=C1Nc2ccccc2/C1=N/NC(=O)c1ccccc1O	Ribonucleoside-diphosphate reductase large subunit	binding, fluorescence	–	–	–	Kd	6.2 µM
VAQELRRIGDEV	BCL2L1	yeast display titration	peptide	2 h, pH 8.0, room temperature	–	Kd	0.0033 ± 0.0006 µM
Nc1ncnc2c1ncn2[C@@H]1O[C@H](COP(=O)(O)OP(=O)(O)NP(=O)(O)O)[C@@H](O)[C@H]1O	Heat shock 70 kDa protein 1A, phosphorylated (HSPA1A, Homo sapiens, UniProt P0DMV8, T66S)	binding, isothermal titration calorimetry	–	pH 7.5, Mg2+ free	–	Kd	2.47 µM

Excerpt of the above:
Substance	tested on	assay	test system	setting	scale	measurement	result
CC(=O)N[C@@H](CC(C)C)C(=O)N[C@@H](CCCCN)C(=O)N[C@@H](CCCCN)C(=O)N[C@@H](CC(C)C)C(=O)N[C@@H](CC(C)C)C(=O)N[C@@H](CCCCN)C(=O)N[C@@H](CC(C)C)C(=O)N[C@@H](CC(C)C)C(=O)N[C@@H](CCCCN)C(=O)N[C@@H](CCCCN)C(=O)N[C@@H](CC(C)C)C(=O)N[C@@H](Cc1c[nH]c2ccccc12)C(=O)N[C@@H](CCCCN)C(=O)N[C@@H](CC(C)C)C(=O)N[C@@H](C)C(=O)NCC(N)=O	HIV-1 RRE hairpin RNA	competitive fluorescence anisotropy	–	pH 7.4, 20 °C, added: rhodamine-Rev peptide	–	Kd	0.013 ± 0.001 µM
CC(=O)N[C@H]1[C@H](O[C@H]2[C@H](O)[C@@H](NC(C)=O)[C@H](O[C@H]3[C@H](O)[C@@H](NC(C)=O)C(O)O[C@@H]3CO)O[C@@H]2CO)O[C@H](CO)[C@@H](O[C@@H]2O[C@H](CO)[C@@H](O[C@@H]3O[C@H](CO)[C@@H](O[C@@H]4O[C@H](CO)[C@@H](O)[C@H](O)[C@H]4NC(C)=O)[C@H](O)[C@H]3NC(C)=O)[C@H](O)[C@H]2NC(C)=O)[C@@H]1O (some centres unmarked)	Chitinase-3-like protein 2 (CHI3L2, Homo sapiens, UniProt Q15782)	tryptophan fluorescence	–	pH 7.5	–	Kd	0.6 ± 0.1 µM
